# Measurements of several laboratories.
# Each numbered part is a random draw from the data of one study; scales do not carry over between parts.

# Series 1 — method: protein-binding microarray; form: double-stranded DNA, one strand shown; medium: in vitro; tested at: 2200 nM top; notes: 60-bp whole probe; together with: salmon DNA 0.4 mg/ml; relative to: random background probes; direction: higher = stronger binding; shared flanks, not repeated: GCCTAGCAC … GTCTTGATTCGCTTGACGCTGCTG
# Target: Interferon regulatory factor 7, full length, phosphomimetic (IRF7, Homo sapiens, UniProt Q92985, residues 1-503, S471D/S472D/S475D/S476D/S477D/S483D/S484D/S487D)
# UniProt Q92985, sequence (whole entry, unmodified, looked up): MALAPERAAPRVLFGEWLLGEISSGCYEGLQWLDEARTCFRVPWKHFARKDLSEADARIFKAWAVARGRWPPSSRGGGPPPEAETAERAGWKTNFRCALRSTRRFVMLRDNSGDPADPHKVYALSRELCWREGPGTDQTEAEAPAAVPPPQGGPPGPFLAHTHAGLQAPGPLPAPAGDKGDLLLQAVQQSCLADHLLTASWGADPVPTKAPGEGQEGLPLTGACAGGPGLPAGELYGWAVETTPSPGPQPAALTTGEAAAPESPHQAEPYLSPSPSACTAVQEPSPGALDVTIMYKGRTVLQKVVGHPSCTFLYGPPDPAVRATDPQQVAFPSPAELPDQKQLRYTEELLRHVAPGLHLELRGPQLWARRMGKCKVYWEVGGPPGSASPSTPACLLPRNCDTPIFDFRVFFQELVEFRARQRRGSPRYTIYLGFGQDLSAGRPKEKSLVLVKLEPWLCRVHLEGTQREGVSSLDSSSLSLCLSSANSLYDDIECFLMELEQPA
Strand,fitted relative affinity [z-score]
TCCTCTTTTTTGTTCCACGCGTGCTAG,2.55
GACGGATTGGGTATCGGGACGTGCTAG,-0.00764
GACGGACTGGCGTTTCGGGACGTGCTA,0.0814
GACGGACTGTGGACTGGGGACGTGCTA,-0.694
TTAGAACTGAGTTGCGATTAGTGCTAG,-0.21
TTCACTTTAAATTAGACTTAGTGCTAG,0.335
AAGCCAGGACGAGCTCGCCTGTGCTAG,-0.253
TTGGGTATCGGGACTGGGTTAGTGCTA,-0.202

# Series 2 — action: inhibitor; tested at: 20 µM
# Target: Replicase polyprotein 1ab, nsp13 helicase (rep, Severe acute respiratory syndrome coronavirus 2, UniProt P0DTD1)
SMILES,inhibition
COCCc1ccc(OCC(O)CNC(C)C)cc1 (stereo not shown),4.53%
Cc1cc(C)cc(NC(=O)Cc2ccc(OC(C)(C)C(=O)O)cc2)c1,2.62%
CC(c1cc2ccccc2s1)N(O)C(N)=O (stereo not shown),0.26%
O=c1[nH]c(C2CCCN2)nc2c1oc1ccc(Cl)cc12 (stereo not shown),3.49%
CC[N+](C)(CC)CCC[n+]1c(-c2ccccc2)c2cc(N)ccc2c2ccc(N)cc21,97.9%
N[C@@H](Cc1c[nH]c2ccc(O)cc12)C(=O)O,8.71%
COC(=O)Nc1ccc2[nH]cc(CCNC(C)=O)c2c1,6.67%
CCOc1ccc(-n2c([C@@H](C)N(Cc3cccnc3)C(=O)Cc3ccc(OC(F)(F)F)cc3)nc3ncccc3c2=O)cc1 (racemic),9.25%
CN1CCc2cccc3c2[C@H]1Cc1ccc(O)c(O)c1-3,9.14%
Cc1nc(Nc2cnn(C3CCNCC3)c2)nc2c1N(C)C(=O)c1cc3ccccc3cc1N2C,7.77%
CN(C)c1cccc(-c2c3c(=O)n(-c4ccccc4Cl)[nH]c3cc(=O)n2C)c1,-3.63%
CC(Oc1ccc(O)cc1)(P(=O)(O)O)P(=O)(O)O,0.02%
COc1cc(-n2c(=S)[nH]c3ccccc3c2=O)c(Cl)cc1Cl,7.08%
CCc1cccc(CC)c1NC(=O)CN(CC(=O)O)CC(=O)O,-0.82%
CC(=O)Nc1ccc(OCC(O)CNC(C)C)cc1 (stereo not shown),2.49%
FC(F)(F)c1cccc(C2=CCN(CCc3ccc4ccccc4c3)CC2)c1,-2.66%
CS(=O)(=O)Nc1c(O)ccc2c1CCCC2C1=NCCN1 (stereo not shown),5.2%
C[C@]12CCC(=O)C=C1CC[C@@H]1[C@@H]2CC[C@@]2(C)[C@H]1CC[C@]2(C)O,1.96%
CCOC(=O)[C@H](CCc1ccccc1)N[C@@H](C)C(=O)N(CC(=O)O)C1Cc2ccccc2C1,1.57%
C[C@]12C=CC(=O)C=C1CC[C@@H]1[C@@H]2[C@@H](O)C[C@@]2(C)[C@H]1CC[C@]2(O)C(=O)COP(=O)(O)O,4.29%
Cc1ccc(-c2n[nH]c3c2C(c2cccc(O)c2)N(c2ccc(C(=O)O)cc2)C3=O)cc1 (stereo not shown),20.5%
C[C@H]1N=C(N(C)C)N=C(N)N1,8.06%
Nc1ccc(S(=O)(=O)Nc2nccs2)cc1,3.59%
N[C@@H](C(=O)O)c1nn[nH]n1 (racemic),2.99%
CN(C)CCCNC(=O)c1ccc(-c2cc(O)c3ncccc3c2)cc1,5.99%

# Series 3 — effect on: enzyme activity; action: inhibitor; tested at: 20 µM; notes: with DTT
# Target: Replicase polyprotein 1ab, main protease (rep, Severe acute respiratory syndrome coronavirus 2, UniProt P0DTD1)
SMILES,inhibition [%]
c1ccc2sc(SNC3CCCCC3)nc2c1,-16.4
CN(C)CCNc1nc2cc(O)ccc2c2c1C(=O)c1ccccc1-2,42.2
Nc1c[n+](N2CCOCC2)no1,-14.9

# Series 4 — cell line: HEK-293T; effect on: pseudovirus infection; organism: VSV pseudotyped with SARS-CoV-2 spike; tested at: 10 µM; time: 16 h; relative to: vehicle-treated
SMILES,GFP-positive cells
Cc1cn([C@@H]2C[C@@H](O)[C@H](CO)O2)c(=O)[nH]c1=O,97.8%
COC[C@@H](NC(C)=O)C(=O)NCc1ccccc1,80.3%
Cc1ccsc1C(=CCCN1CCC[C@@H](C(=O)O)C1)c1sccc1C,82%
CC(=O)OC(C)C[N+](C)(C)C (stereo not shown),110%

# Series 5 — method: RNA Bind-n-Seq; form: RNA; medium: in vitro; tested at: 200 nM; notes: whole 134-nt RNA, ends assumed; together with: 150 mM LiCl; relative to: input library; direction: higher = stronger binding; library: 7-deaza-guanosine replaces G
# Target: Fragile X messenger ribonucleoprotein 1, C-terminal low-complexity region (Fmr1, Mus musculus, UniProt P35922)
Strand,log2 enrichment
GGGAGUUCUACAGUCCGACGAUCCUCAAGUCCUGUGCUACACAUCGUAUGUACCGAAUCGGUGGAGGAAAAAAAGGAAAGUAUUAUGUUACGCCGUUCGGAUCUGCACUUCCAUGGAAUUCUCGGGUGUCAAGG,-0.0986
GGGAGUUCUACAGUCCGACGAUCCCUGUGCUACACAUCGUAUGUACCGAAUCGGGGUUUUUGGGGUUUUUUUGGGGUUUGGGGAAAGUAUUAUGUUACGCCGUUCGGAUCUGCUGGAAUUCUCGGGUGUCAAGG,-0.873
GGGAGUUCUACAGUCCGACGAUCUGGCCCUGGUGGCAUGCGGGGAGGAAGAGGUGGCCUCAUGGAUCGUGGUGGUCCCGGUGGAAUGUUCAGAGGUGGCCGUGAUGGAGACAGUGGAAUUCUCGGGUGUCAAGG,-1.04
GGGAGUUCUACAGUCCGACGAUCUAACUUUAGAGGAGGAUCUGAUGGAUAUGGCAGUGGACGCGGAUUUGGGGAUGGCUAUAAUGGGUAUGGAGGAGGACCUGGAGGUGGCAAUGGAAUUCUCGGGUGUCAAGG,0.368
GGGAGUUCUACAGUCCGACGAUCUAACUUUAGAGGAGGAUCUGAUGGAUAUGGCAGUGGACGUGGAUUUGGGGAUGGCUAUAAUGGGUAUGGAGGAGAACCUGGAGGUGGCAAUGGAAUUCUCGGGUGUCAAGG,0.317
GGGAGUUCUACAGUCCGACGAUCUCAAGUCCUGUGCUACACAUCGUAUGUACCGAAUCGGGGCCGGGCCGGGGCCGGGAAAGUAUUAUGUUACGCCGUUCGGAUCUGCACUUCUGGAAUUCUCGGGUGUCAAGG,0.0318
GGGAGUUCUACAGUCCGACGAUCUGGGAGGUGGAUUGUGUUUAUUUUUUUAGCUCAUUUCCAGGGGUGGGAAUUUUUUUUUAAUAUGUGUCAUGAAUAAAGUUGUUUUUGAAAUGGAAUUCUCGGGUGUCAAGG,1.09
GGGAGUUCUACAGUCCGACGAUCAGUCCUGUGCUACACAUCGUAUGUACCGAAUCGGGGAAAAGGGGAAAAGGGGAAAAGGAAAGUAUUAUGUUACGCCGUUCGGAUCUGCACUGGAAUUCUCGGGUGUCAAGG,0.114

# Other studies, line by line — method: RNA Bind-n-Seq; form: RNA; medium: in vitro; notes: 4-mer, random 30-nt RNA, single round; direction: higher = stronger binding
# EIF4A1: Eukaryotic initiation factor 4A-I (EIF4A1, Homo sapiens, UniProt P60842, residues 1-406, full length assumed)
# UniProt P60842, sequence (whole entry, looked up): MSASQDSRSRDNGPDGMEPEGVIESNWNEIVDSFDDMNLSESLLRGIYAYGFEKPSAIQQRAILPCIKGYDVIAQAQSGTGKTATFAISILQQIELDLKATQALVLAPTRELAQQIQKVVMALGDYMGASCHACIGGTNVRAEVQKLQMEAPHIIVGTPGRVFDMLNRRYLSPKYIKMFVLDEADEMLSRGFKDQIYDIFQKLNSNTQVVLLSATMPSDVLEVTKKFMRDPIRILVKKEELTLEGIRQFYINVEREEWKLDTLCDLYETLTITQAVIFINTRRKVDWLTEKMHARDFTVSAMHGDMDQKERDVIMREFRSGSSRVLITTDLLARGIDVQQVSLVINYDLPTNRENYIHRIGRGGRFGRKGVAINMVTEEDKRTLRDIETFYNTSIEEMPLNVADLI
# DDX3X helicase core: ATP-dependent RNA helicase DDX3X, helicase core (DDX3X, Homo sapiens, UniProt O00571, residues 132-607)
# UniProt O00571, sequence (132-607, looked up): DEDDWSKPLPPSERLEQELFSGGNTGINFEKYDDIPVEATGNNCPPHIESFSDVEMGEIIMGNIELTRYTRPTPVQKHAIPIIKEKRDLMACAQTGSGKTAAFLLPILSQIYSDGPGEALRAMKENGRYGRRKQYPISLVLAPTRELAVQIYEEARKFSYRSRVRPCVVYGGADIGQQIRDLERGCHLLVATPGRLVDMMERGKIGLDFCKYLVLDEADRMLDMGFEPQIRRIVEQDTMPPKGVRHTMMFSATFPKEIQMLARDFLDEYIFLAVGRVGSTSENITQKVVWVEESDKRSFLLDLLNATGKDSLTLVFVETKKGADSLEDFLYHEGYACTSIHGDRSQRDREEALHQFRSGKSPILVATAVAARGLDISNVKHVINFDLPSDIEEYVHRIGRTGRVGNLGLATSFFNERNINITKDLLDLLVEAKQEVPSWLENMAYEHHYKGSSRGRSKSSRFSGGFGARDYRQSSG
Strand,target,conditions,scale,measurement,result
CGGA,EIF4A1,"not given, together with: RocA, ADP, phosphate",relative to: input library,4-mer enrichment,1.3 fold
GGUA,EIF4A1,"15 pmol, together with: 3 µM RocA, 2 mM AMP-PNP",relative to: mean of 4-mers,4-mer enrichment Z-score,1.04
CUUC,DDX3X helicase core,"90 pmol, together with: 3 µM iPr-DMDA-PatA, 2 mM ADP, 2 mM phosphate",relative to: input library,4-mer enrichment,0.841 fold
GCAC,DDX3X helicase core,"90 pmol, together with: 3 µM DMDA-PatA, 2 mM ADP, 2 mM phosphate",relative to: input library,4-mer enrichment,0.922 fold

# A few entries again (series 2):
SMILES,inhibition
C[C@]12CCC(=O)C=C1CC[C@@H]1[C@@H]2CC[C@@]2(C)[C@H]1CC[C@]2(C)O,1.96%
N[C@@H](Cc1c[nH]c2ccc(O)cc12)C(=O)O,8.71%
CCc1cccc(CC)c1NC(=O)CN(CC(=O)O)CC(=O)O,-0.82%
CC(=O)Nc1ccc(OCC(O)CNC(C)C)cc1 (stereo not shown),2.49%
CC[N+](C)(CC)CCC[n+]1c(-c2ccccc2)c2cc(N)ccc2c2ccc(N)cc21,97.9%
C[C@H]1N=C(N(C)C)N=C(N)N1,8.06%
Nc1ccc(S(=O)(=O)Nc2nccs2)cc1,3.59%
C[C@]12C=CC(=O)C=C1CC[C@@H]1[C@@H]2[C@@H](O)C[C@@]2(C)[C@H]1CC[C@]2(O)C(=O)COP(=O)(O)O,4.29%
Cc1ccc(-c2n[nH]c3c2C(c2cccc(O)c2)N(c2ccc(C(=O)O)cc2)C3=O)cc1 (stereo not shown),20.5%
